Published values pooled from the literature.
Numbered parts are unrelated; each lists some results of a single study.
Sequence of UniProt O96017 (whole entry, looked up): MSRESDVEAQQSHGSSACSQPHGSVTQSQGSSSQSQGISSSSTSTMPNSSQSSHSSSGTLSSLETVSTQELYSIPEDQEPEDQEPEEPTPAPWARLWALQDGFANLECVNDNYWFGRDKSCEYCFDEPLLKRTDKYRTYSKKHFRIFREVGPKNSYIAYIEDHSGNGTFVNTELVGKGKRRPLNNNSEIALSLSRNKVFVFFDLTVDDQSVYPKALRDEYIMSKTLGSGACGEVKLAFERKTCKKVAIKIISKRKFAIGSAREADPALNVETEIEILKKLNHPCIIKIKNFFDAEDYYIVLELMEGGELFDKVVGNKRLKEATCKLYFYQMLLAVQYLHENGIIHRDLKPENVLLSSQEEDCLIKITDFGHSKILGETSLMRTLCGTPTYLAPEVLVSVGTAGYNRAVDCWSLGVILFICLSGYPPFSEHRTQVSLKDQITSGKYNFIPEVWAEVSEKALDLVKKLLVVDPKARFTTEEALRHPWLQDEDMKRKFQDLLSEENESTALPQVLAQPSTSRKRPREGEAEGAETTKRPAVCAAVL
Sequence of UniProt P36897 (whole entry, looked up): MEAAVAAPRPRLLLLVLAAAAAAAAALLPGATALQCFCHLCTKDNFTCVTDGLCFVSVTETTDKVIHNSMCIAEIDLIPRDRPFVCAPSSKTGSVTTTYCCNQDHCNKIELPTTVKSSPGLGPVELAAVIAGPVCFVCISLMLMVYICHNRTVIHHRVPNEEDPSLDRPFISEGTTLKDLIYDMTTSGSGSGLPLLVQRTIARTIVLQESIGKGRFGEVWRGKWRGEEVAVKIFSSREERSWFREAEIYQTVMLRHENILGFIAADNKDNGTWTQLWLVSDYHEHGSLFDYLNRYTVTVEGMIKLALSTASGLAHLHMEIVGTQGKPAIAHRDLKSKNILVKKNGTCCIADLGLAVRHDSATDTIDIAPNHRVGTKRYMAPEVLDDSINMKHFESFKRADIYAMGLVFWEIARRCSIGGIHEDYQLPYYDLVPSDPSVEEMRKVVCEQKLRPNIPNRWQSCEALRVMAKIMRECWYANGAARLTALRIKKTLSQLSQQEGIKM
Sequence of UniProt P51955 (whole entry, looked up): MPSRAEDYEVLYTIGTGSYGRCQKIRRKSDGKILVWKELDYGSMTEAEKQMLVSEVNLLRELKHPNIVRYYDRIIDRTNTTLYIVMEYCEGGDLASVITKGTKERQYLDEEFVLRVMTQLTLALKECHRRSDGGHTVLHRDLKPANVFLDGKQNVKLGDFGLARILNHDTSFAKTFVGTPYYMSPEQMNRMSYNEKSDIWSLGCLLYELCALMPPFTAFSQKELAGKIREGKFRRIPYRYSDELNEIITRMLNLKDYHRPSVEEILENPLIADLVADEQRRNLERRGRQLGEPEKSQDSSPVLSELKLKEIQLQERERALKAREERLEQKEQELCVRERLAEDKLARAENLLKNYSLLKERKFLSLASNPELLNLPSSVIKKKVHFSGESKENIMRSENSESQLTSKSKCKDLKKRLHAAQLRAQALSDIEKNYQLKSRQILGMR
Sequence of UniProt Q9BYT3 (whole entry, looked up): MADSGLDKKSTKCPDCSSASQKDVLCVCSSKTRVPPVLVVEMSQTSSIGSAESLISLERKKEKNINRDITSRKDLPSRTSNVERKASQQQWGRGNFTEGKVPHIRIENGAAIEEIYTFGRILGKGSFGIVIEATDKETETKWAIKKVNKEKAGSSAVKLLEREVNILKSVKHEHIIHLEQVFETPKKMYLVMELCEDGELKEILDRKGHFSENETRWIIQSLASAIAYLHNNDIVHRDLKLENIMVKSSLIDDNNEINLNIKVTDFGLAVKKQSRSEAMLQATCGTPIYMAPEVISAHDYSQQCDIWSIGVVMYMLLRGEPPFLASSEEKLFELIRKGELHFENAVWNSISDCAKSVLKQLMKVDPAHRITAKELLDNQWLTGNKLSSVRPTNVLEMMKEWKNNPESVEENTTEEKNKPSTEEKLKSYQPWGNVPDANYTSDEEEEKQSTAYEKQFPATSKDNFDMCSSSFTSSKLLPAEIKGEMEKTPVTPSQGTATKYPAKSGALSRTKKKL
Sequence of UniProt Q00535 (whole entry, looked up): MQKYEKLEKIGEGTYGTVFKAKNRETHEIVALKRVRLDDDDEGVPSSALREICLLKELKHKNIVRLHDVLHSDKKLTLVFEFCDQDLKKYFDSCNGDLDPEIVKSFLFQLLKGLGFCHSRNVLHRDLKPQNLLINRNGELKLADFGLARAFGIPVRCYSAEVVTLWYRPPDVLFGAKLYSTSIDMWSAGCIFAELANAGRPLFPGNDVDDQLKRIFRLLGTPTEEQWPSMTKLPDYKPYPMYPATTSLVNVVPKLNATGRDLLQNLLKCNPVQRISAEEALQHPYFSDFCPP
Sequence of UniProt P35626 (whole entry, looked up): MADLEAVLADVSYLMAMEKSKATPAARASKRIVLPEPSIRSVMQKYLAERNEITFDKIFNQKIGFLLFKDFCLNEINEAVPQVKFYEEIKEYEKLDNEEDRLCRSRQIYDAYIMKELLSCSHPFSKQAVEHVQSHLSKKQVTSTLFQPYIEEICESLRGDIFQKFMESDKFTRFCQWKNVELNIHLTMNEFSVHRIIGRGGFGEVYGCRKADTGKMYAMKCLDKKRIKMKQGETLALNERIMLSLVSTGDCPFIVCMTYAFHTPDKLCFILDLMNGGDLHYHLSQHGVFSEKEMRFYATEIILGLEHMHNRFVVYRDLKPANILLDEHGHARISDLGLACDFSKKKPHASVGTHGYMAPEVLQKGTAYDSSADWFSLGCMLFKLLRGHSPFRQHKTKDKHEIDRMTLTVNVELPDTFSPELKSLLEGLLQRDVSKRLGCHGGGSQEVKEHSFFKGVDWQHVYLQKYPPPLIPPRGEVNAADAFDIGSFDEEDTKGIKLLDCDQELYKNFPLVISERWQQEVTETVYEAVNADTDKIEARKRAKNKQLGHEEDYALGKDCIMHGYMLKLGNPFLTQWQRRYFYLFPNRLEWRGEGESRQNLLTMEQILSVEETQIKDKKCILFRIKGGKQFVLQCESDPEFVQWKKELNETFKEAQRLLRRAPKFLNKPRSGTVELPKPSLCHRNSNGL
Sequence of UniProt P05771 (whole entry, looked up): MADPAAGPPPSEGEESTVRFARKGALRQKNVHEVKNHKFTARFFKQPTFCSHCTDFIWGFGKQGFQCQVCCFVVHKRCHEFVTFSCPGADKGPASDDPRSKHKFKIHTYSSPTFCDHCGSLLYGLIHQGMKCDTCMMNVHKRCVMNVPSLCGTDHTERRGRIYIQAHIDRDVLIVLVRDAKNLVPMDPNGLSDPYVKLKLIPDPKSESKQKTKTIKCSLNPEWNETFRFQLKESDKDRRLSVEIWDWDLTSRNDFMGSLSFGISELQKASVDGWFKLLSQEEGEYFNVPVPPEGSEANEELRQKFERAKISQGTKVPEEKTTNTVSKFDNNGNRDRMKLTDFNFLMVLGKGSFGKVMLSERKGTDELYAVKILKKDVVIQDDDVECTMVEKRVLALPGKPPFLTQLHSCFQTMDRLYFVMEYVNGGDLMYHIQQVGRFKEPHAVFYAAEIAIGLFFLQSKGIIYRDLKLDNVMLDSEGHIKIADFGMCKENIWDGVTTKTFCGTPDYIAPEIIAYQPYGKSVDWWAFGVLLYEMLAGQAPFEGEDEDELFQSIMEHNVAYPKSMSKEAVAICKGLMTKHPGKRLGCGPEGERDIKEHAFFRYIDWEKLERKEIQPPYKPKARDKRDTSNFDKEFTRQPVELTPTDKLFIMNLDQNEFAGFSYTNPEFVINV
Sequence of UniProt P07948 (whole entry, looked up): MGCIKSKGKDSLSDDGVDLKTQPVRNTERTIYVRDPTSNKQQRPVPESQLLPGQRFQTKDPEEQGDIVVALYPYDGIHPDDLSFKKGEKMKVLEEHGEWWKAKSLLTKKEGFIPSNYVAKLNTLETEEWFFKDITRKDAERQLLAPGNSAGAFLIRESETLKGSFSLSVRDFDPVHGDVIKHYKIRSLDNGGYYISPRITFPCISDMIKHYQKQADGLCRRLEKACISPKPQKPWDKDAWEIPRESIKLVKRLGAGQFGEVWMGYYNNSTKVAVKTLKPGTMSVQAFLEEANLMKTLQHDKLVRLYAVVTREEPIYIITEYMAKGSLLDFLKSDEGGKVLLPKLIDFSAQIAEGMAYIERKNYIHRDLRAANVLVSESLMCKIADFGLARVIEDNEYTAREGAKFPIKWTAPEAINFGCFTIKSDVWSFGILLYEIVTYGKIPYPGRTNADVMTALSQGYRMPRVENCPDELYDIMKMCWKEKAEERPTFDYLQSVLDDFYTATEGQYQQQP

Study 1
Compound: COc1ccc2c(c[n+](C)c3c4cc5c(cc4ccc23)OCO5)c1OC
Observed: enzyme activity
Mode: inhibitor
Concentration: 0.5 µM
Baseline: control
It gave 98.6% for remaining activity (Serine/threonine-protein kinase Nek2 (NEK2, Homo sapiens, UniProt P51955)).
It gave 88.4% for remaining activity (G protein-coupled receptor kinase 3 (GRK3, Homo sapiens, UniProt P35626)).
For STE20/SPS1-related proline-alanine-rich protein kinase (STK39, Homo sapiens, UniProt Q9UEW8): remaining activity read 90.8%.
It gave 86.2% for remaining activity (Cyclin-dependent kinase 5, with p25 (CDK5, Homo sapiens, UniProt Q00535)).
The remaining activity was 96.5% (Serine/threonine-protein kinase Chk2 (CHEK2, Homo sapiens, UniProt O96017)).
For Protein kinase C alpha type (PRKCA, Homo sapiens, UniProt P17252): remaining activity read 78.9%.
For Protein kinase C beta type, isoform beta-I (PRKCB, Homo sapiens, UniProt P05771): remaining activity read 100%.
The remaining activity was 95.4% (Tyrosine-protein kinase Lyn, isoform B (LYN, Homo sapiens, UniProt P07948)).
The remaining activity was 98.5% (TGF-beta receptor type-1 (TGFBR1, Homo sapiens, UniProt P36897)).
The remaining activity was 101% (Inhibitor of nuclear factor kappa-B kinase subunit epsilon (IKBKE, Homo sapiens, UniProt Q14164)).

Study 2
Cell line: A-375
Concentration: 100 µM
Time: 18 h
With Cc1cccc([C@H](C)c2cnc[nH]2)c1C the viability was 99.6%.
For C[C@@H]1CC[C@@]2(OC1)O[C@H]1[C@@H](O)[C@H]3[C@@H]4CC[C@H]5C[C@@H](O[C@@H]6O[C@H](CO)[C@H](O[C@@H]7O[C@H](CO)[C@@H](O)[C@H](O[C@@H]8OC[C@@H](O)[C@H](O)[C@H]8O)[C@H]7O[C@@H]7O[C@H](CO)[C@H](O)[C@H](O[C@@H]8O[C@H](CO)[C@@H](O)[C@H](O)[C@H]8O)[C@H]7O)[C@H](O)[C@H]6O)[C@H](O)C[C@]5(C)[C@H]4CC[C@]3(C)[C@H]1[C@@H]2C, the viability was 8.08%.
For CC[C@@]1(O)C(=O)OCc2c1cc1n(c2=O)Cc2cc3cc(O)ccc3nc2-1, the viability was 59%.
C[C@]12C=CC(=O)C=C1CC[C@@H]1[C@@H]2CC[C@@]2(C)[C@H]1CC[C@]2(C)O has a viability of 89.1%.

Study 3
Target: Delta-type opioid receptor (OPRD1, Homo sapiens, UniProt P41143)
Sequence of UniProt P41143 (whole entry, looked up): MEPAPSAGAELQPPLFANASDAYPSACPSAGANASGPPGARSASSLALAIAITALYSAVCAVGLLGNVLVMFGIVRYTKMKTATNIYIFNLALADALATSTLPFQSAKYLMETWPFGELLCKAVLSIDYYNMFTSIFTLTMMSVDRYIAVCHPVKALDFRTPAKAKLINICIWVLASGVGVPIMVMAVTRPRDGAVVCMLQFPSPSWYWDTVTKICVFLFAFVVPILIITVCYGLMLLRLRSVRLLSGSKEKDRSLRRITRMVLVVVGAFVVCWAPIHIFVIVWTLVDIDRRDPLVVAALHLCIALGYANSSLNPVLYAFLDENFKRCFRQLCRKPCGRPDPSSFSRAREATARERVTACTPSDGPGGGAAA
Observed: ligand displacement
Concentration: 10 µM
COc1ccc2cc(OCC3(C(=O)O)CN(C(=O)c4ccc(F)cc4)C3)ccc2c1 gave an inhibition of 5.07%.
The inhibition of C[C@@H]1CN(c2cc(-c3n[nH]c4ccc(OC5(C)CC5)cc34)ncn2)C[C@H](C)O1 is reported as 6.66%.
Cc1c(NC(=O)c2cc(C(N)=O)nc3cc(F)ccc23)c(C(F)(F)F)nn1Cc1ccc(C#N)cc1 has an inhibition of -13.1%.
NC(=O)c1ccc2nc(-c3ccc(C4(N)CCC4)cc3)c(-c3ccccc3)n2n1 has an inhibition of 26.9%.
For CS(=O)(=O)N1CCCC(NC(=O)[C@H](CCC2CCCCC2)NC(=O)c2ccc(CNC(=O)c3cnc4ccccn34)cc2)C1 (some centres unmarked), the inhibition was 8.18%.
For Cc1noc([C@H]2C[C@@H](c3ccc(C(F)(F)F)cc3)CN(C(=O)N3CCS(=O)(=O)C3)C2)n1, the inhibition was -0.62%.
The inhibition of C[C@H](c1ccnc(Nc2nc3ccc(-c4cc(N(C)C)ncn4)cc3[nH]2)c1)N1CCN(C(=O)CC(F)(F)F)CC1 is reported as 29%.
O=C(N[C@H]1CCCCC/C=C\C2C[C@@]2(C(=O)O)NC(=O)[C@@H]2C[C@@H](Oc3ccncc3)CN2C1=O)OC1CCCC1 (some centres unmarked) gave an inhibition of -2.02%.
CN1CCN(C(=O)C(C)(C)c2ccc(C(=O)Nc3cn4cc(-c5cc(C(C)(C)C)cc(C(C)(C)C)c5)ccc4n3)cc2)CC1 gave an inhibition of 46.2%.
The inhibition of CC(=O)Nc1ncc(CN2CCC[C@H](Cc3cc(C)nc(C)c3)C2)s1 is reported as 11.8%.
For CN(C)C(=O)c1sc2nc(N3CCC(S(C)(=O)=O)CC3)cc(C(F)(F)F)c2c1N, the inhibition was 8.58%.
With CCC(=NO)C(C)=Cc1ccc(F)c(C)c1 the inhibition was 2.53%.
For O=C(NS(=O)(=O)c1ccc(NCC2CCOCC2)c([N+](=O)[O-])c1)c1ccc(N2CCN(Cc3ccc(C(F)(F)F)cc3-c3ccc(Cl)cc3)CC2)cc1Oc1cnc2[nH]ccc2c1, the inhibition was -3.92%.
The inhibition of COc1cc(-c2cn(C3CCc4c(F)cccc4N(CC(F)(F)F)C3=O)nn2)ccc1-n1cnc(C)c1 (centres unmarked) is reported as 18.2%.

Other studies, line by line
Cc1nc(Nc2ncc(C(=O)Nc3c(C)cccc3Cl)s2)cc(N2CCN(CCO)CC2)n1 has an inhibition of less than 50% (Serine/threonine-protein kinase 33 (STK33, Homo sapiens, UniProt Q9BYT3); 10 µM).

Repeated from above (study 3):
COc1ccc2cc(OCC3(C(=O)O)CN(C(=O)c4ccc(F)cc4)C3)ccc2c1 gave an inhibition of 5.07%.
The inhibition of COc1cc(-c2cn(C3CCc4c(F)cccc4N(CC(F)(F)F)C3=O)nn2)ccc1-n1cnc(C)c1 (centres unmarked) is reported as 18.2%.
